Measured values collected from several papers.
Numbered parts are unrelated; each lists some results of a single study. Several values in a cell are separate wells, animals, samples, runs or records.
UniProt P42336, sequence (whole entry, unmodified, looked up): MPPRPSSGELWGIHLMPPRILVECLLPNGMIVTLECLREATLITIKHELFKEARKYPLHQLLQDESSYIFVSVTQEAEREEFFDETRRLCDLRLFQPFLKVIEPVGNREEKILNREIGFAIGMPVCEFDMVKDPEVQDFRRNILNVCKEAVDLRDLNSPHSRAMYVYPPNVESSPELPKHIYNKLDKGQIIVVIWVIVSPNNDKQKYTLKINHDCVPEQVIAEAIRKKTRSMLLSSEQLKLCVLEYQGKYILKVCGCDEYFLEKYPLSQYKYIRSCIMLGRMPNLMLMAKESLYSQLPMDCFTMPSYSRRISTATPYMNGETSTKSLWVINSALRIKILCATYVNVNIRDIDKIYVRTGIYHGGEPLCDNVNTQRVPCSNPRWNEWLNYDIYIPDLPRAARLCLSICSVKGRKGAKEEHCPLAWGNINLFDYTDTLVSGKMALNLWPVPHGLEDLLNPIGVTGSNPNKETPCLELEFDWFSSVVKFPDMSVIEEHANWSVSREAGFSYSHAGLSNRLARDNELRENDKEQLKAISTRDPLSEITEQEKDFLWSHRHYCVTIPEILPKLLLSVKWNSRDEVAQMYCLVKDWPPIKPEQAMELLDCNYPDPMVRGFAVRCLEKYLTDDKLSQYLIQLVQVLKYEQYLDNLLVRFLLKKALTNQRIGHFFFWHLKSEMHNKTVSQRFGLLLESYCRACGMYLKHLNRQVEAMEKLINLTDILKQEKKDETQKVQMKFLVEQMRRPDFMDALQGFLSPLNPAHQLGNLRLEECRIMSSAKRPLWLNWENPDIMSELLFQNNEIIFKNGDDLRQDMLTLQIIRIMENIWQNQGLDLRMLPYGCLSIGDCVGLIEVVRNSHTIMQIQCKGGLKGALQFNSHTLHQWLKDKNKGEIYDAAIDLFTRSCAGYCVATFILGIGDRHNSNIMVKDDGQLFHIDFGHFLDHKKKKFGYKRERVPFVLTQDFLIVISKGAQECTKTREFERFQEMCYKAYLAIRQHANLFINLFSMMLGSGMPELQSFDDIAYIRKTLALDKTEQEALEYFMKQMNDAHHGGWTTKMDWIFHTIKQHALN
UniProt Q14012, sequence (whole entry, looked up): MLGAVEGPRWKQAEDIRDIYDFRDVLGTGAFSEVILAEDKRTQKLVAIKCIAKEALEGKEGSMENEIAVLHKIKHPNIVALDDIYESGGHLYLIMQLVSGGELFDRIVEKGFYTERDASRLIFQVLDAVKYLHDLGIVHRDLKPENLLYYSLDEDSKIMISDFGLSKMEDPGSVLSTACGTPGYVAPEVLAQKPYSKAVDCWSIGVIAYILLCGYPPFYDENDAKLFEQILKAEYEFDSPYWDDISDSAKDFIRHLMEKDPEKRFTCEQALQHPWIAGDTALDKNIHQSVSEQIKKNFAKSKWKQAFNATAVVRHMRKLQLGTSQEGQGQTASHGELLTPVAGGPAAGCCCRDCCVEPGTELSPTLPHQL
UniProt Q9Y616, sequence (whole entry, looked up): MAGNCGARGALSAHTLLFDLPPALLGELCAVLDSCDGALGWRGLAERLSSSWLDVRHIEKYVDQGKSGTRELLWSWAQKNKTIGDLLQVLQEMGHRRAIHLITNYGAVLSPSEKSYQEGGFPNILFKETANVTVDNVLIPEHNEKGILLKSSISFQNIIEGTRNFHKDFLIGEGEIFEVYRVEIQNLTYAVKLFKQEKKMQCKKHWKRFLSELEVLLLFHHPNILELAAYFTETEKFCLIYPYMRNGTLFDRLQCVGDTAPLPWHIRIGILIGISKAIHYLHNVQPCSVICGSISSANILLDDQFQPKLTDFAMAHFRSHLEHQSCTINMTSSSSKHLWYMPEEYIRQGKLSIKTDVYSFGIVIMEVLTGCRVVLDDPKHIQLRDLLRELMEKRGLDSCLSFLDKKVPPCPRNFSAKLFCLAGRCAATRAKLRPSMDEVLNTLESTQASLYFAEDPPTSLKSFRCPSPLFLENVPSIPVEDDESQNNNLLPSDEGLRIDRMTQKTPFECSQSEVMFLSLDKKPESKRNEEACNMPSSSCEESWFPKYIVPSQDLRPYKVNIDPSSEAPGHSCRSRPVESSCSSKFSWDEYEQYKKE
UniProt P49760, sequence (whole entry, looked up): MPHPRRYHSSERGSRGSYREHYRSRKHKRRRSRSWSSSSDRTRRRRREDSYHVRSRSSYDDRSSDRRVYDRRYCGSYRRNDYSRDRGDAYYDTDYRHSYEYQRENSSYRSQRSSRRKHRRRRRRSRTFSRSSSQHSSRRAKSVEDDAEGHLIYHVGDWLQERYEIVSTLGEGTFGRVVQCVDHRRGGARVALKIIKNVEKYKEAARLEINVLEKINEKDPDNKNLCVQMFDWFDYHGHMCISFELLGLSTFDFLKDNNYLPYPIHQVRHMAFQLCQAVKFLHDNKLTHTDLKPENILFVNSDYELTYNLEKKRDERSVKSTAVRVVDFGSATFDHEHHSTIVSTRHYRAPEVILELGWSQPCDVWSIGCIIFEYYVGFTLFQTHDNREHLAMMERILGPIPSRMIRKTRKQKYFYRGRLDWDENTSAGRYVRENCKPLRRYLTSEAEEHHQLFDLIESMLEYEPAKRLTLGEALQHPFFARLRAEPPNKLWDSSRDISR

Block 1 — observed: enzyme activity; mode: inhibitor; tested at: 0.5 µM; baseline: control
Target: Serine/threonine-protein kinase NLK (NLK, Homo sapiens, UniProt Q9UBE8)
Construct (Q9UBE8 1-527): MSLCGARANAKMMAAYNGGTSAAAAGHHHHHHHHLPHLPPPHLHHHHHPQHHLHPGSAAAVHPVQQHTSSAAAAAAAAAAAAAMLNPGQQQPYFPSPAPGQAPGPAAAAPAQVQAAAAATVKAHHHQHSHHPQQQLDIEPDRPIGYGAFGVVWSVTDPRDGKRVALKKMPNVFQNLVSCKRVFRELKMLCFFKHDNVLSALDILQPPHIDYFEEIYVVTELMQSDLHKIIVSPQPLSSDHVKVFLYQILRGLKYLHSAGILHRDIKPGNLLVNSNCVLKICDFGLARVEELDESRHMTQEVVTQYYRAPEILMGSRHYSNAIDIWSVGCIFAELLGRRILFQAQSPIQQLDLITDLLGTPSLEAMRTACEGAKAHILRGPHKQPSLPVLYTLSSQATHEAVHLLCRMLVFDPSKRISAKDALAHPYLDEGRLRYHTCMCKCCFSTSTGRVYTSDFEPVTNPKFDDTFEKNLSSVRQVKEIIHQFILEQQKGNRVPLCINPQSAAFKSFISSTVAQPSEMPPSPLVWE
| SMILES | remaining activity [%] |
| --- | --- |
| O=C1c2ccccc2-c2nc3nnnn3nc21 | 98.2 |
| O=C(c1ccccc1)c1ccc(N2CCOCC2)cc1O | 97.3 |
| CCCCc1c(-c2ccc(O)cc2)[nH]c2nccnc12 | 90.3 |
| NC(=O)c1cccc(-c2cc(Nc3ccc(OC(F)(F)F)cc3)ncn2)c1 | 93.4 |
| O=Nc1c(-c2c(O)[nH]c3ccccc23)[nH]c2ccccc12 | 94.6 |
| N#C/C(=C(/N)SC1C=CC=CC1)c1cccc(C(O)c2ccncc2)c1 (stereo not drawn) | 100 |
| O=C1NC(=O)/C(=C/c2ccc3c(c2)OC(F)(F)O3)S1 | 93.8 |
| O=c1c(-c2ccc(F)cc2)c(-c2ccncc2)[nH]n1-c1ccc(Cl)cc1 | 16 |
| O=C(O)/C=C/c1cc(Br)c(Br)c(Br)c1Br | 99.1 |
| CC(C)(C)c1nc2c3cc[nH]c(=O)c3c3cc(F)ccc3c2[nH]1 | 26.1 |
| CC(C)n1cnc2c(Nc3cccc(Cl)c3)nc(NCCO)nc21 | 102 |
| NC(=O)c1ccc(-c2nc(-c3ccc4c(c3)OCCO4)c(-c3ccccn3)[nH]2)cc1 | 103 |
| N#CC(c1ccnc(NCCc2cccnc2)n1)c1nc2ccccc2s1 (stereo not drawn) | 94.9 |
| Nc1nc(Nc2ccc(S(N)(=O)=O)cc2)nn1C(=S)Nc1c(F)cccc1F | 45.1 |
| CCN(CC)CCCCN1c2ccccc2Oc2ccc(Cl)cc21 | 101 |
| COc1cc2c(Nc3ccc(Br)cc3F)ncnc2cc1OCC1CCN(C)CC1 | 96.2 |
| c1cc(-c2cnn3cc(-c4ccc(OCCN5CCCCC5)cc4)cnc23)ccn1 | 58.1 |
| CC(C)N(CCC(=O)c1ccc2ccccc2c1)Cc1ccccc1 | 94.8 |
| C[C@@H](N)[C@H]1CC[C@H](C(=O)Nc2ccncc2)CC1 | 85.6 |
| COc1cc2c(N3CCN(C(=O)Nc4ccc(OC(C)C)cc4)CC3)ncnc2cc1OCCCN1CCCCC1 | 105 |
| Clc1ccc(Nc2nnc(Cc3ccncc3)c3ccccc23)cc1 | 99.3 |
| CNc1cc2c(Nc3cccc(Br)c3)ncnc2cn1 | 84.3 |
| FC(F)(F)c1ccc(/C=C/c2nc(COc3ccc(CCCCn4ccnn4)cc3)co2)cc1 | 101 |

Block 2 — method: competition with immobilised ligand; tested at: 1 µM
Compound: Cc1nc(C2CCN(C(=O)c3ccc(OC(F)(F)F)cc3N)CC2)c2ncc(N3CCN(C)CC3)cc2n1
| target | assay | remaining binding [%] |
| --- | --- | --- |
| cAMP-dependent protein kinase catalytic subunit beta (PRKACB, Homo sapiens, UniProt P22694) | cell-free assay | 100 |
| Phosphatidylinositol 4,5-bisphosphate 3-kinase catalytic subunit alpha isoform (PIK3CA, Homo sapiens, UniProt P42336, E545K) | cell-free assay | 85 |
| Tyrosine-protein kinase SYK (SYK, Homo sapiens, UniProt P43405) | cell-free assay | 98 |
| Tyrosine-protein kinase ABL2 (ABL2, Homo sapiens, UniProt P42684) | cell-free assay | 93 |
| Megakaryocyte-associated tyrosine-protein kinase (MATK, Homo sapiens, UniProt P42679) | cell-free assay | 100 |
| Tyrosine-protein kinase JAK3, JH1 (JAK3, Homo sapiens, UniProt P52333) | cell-free assay | 100 |
| Activin receptor type-2A (ACVR2A, Homo sapiens, UniProt P27037) | cell-free assay | 100 |
| Platelet-derived growth factor receptor beta (PDGFRB, Homo sapiens, UniProt P09619) | cell-free assay | 95 |
| Receptor-type tyrosine-protein kinase FLT3 (FLT3, Homo sapiens, UniProt P36888) | cell-free assay | 100 |
| cAMP-dependent protein kinase catalytic subunit alpha (PRKACA, Homo sapiens, UniProt P17612) | cell-free assay | 100 |
| Tyrosine-protein kinase JAK1, JH2 (JAK1, Homo sapiens, UniProt P23458) | cell-free assay | 90 |
| Serine/threonine-protein kinase ICK (CILK1, Homo sapiens, UniProt Q9UPZ9) | cell-free assay | 84 |
| Tyrosine-protein kinase Lyn (LYN, Homo sapiens, UniProt P07948) | cell-free assay | 100 |
| Bone morphogenetic protein receptor type-1A (BMPR1A, Homo sapiens, UniProt P36894) | binding | 80 |
| Serine/threonine-protein kinase RIO3 (RIOK3, Homo sapiens, UniProt O14730) | cell-free assay | 87 |
| Tyrosine-protein kinase Fes/Fps (FES, Homo sapiens, UniProt P07332) | cell-free assay | 96 |
| Angiopoietin-1 receptor (TEK, Homo sapiens, UniProt Q02763) | cell-free assay | 81 |
| Calcium/calmodulin-dependent protein kinase type 1B (PNCK, Homo sapiens, UniProt Q6P2M8) | cell-free assay | 100 |
| Calcium/calmodulin-dependent protein kinase type 1 (CAMK1, Homo sapiens, UniProt Q14012) | cell-free assay | 100 |
| SRSF protein kinase 3 (SRPK3, Homo sapiens, UniProt Q9UPE1) | cell-free assay | 100 |
| Homeodomain-interacting protein kinase 3 (HIPK3, Homo sapiens, UniProt Q9H422) | cell-free assay | 96 |
| Mitogen-activated protein kinase 3 (MAPK3, Homo sapiens, UniProt P27361) | cell-free assay | 98 |
| Cyclin-dependent kinase 15 (CDK15, Homo sapiens, UniProt Q96Q40) | cell-free assay | 100 |
| Dual specificity protein kinase CLK2 (CLK2, Homo sapiens, UniProt P49760) | cell-free assay | 100 |
| Phosphatidylinositol 4,5-bisphosphate 3-kinase catalytic subunit beta isoform (PIK3CB, Homo sapiens, UniProt P42338) | cell-free assay | 94 |

Block 3 — observed: enzyme activity; mode: inhibitor; tested at: 1 µM
Structure (SMILES): CO[C@@H]1[C@H](N(C)C(=O)c2ccccc2)C[C@H]2O[C@]1(C)n1c3ccccc3c3c4c(c5c6ccccc6n2c5c31)C(=O)NC4
| target | inhibition [%] |
| --- | --- |
| MAP kinase-activated protein kinase 2 (MAPKAPK2, Homo sapiens, UniProt P49137) | 0 |
| Epidermal growth factor receptor (EGFR, Homo sapiens, UniProt P00533, del752-759) | 6 |
| Phosphatidylinositol 4-phosphate 3-kinase C2 domain-containing subunit beta (PIK3C2B, Homo sapiens, UniProt O00750) | 27 |
| Serine/threonine-protein kinase N1 (PKN1, Homo sapiens, UniProt Q16512) | 95 |
| Tyrosine-protein kinase ABL1, phosphorylated (ABL1, Homo sapiens, UniProt P00519, E255K) | 26 |
| Phosphatidylinositol 4,5-bisphosphate 3-kinase catalytic subunit alpha isoform (PIK3CA, Homo sapiens, UniProt P42336, E545A) | 20 |
| Serine/threonine-protein kinase PLK3 (PLK3, Homo sapiens, UniProt Q9H4B4) | 11 |
| Interleukin-1 receptor-associated kinase 3 (IRAK3, Homo sapiens, UniProt Q9Y616) | 98 |
| Calcium/calmodulin-dependent protein kinase type 1 (CAMK1, Homo sapiens, UniProt Q14012) | 39 |
| Serine/threonine-protein kinase Chk2 (CHEK2, Homo sapiens, UniProt O96017) | 6 |
| Ephrin type-A receptor 7 (EPHA7, Homo sapiens, UniProt Q15375) | 6 |
| Hepatocyte growth factor receptor (MET, Homo sapiens, UniProt P08581, Y1235D) | 42 |
| Phosphatidylinositol 3-kinase C2 domain-containing subunit gamma (PIK3C2G, Homo sapiens, UniProt O75747) | 32 |
| Platelet-derived growth factor receptor alpha (PDGFRA, Homo sapiens, UniProt P16234) | 81 |
| Mast/stem cell growth factor receptor Kit (KIT, Homo sapiens, UniProt P10721, V559D/V654A) | 64 |
| Tyrosine-protein kinase ITK/TSK (ITK, Homo sapiens, UniProt Q08881) | 0 |
| Casein kinase II subunit alpha (CSNK2A1, Homo sapiens, UniProt P68400) | 12 |

Block 4 — observed: enzyme activity; mode: inhibitor; tested at: 77 µM; baseline: untreated
Target: DNA polymerase theta, ATPase domain (POLQ, Homo sapiens, UniProt O75417)
UniProt O75417, sequence (whole entry, unmodified, looked up): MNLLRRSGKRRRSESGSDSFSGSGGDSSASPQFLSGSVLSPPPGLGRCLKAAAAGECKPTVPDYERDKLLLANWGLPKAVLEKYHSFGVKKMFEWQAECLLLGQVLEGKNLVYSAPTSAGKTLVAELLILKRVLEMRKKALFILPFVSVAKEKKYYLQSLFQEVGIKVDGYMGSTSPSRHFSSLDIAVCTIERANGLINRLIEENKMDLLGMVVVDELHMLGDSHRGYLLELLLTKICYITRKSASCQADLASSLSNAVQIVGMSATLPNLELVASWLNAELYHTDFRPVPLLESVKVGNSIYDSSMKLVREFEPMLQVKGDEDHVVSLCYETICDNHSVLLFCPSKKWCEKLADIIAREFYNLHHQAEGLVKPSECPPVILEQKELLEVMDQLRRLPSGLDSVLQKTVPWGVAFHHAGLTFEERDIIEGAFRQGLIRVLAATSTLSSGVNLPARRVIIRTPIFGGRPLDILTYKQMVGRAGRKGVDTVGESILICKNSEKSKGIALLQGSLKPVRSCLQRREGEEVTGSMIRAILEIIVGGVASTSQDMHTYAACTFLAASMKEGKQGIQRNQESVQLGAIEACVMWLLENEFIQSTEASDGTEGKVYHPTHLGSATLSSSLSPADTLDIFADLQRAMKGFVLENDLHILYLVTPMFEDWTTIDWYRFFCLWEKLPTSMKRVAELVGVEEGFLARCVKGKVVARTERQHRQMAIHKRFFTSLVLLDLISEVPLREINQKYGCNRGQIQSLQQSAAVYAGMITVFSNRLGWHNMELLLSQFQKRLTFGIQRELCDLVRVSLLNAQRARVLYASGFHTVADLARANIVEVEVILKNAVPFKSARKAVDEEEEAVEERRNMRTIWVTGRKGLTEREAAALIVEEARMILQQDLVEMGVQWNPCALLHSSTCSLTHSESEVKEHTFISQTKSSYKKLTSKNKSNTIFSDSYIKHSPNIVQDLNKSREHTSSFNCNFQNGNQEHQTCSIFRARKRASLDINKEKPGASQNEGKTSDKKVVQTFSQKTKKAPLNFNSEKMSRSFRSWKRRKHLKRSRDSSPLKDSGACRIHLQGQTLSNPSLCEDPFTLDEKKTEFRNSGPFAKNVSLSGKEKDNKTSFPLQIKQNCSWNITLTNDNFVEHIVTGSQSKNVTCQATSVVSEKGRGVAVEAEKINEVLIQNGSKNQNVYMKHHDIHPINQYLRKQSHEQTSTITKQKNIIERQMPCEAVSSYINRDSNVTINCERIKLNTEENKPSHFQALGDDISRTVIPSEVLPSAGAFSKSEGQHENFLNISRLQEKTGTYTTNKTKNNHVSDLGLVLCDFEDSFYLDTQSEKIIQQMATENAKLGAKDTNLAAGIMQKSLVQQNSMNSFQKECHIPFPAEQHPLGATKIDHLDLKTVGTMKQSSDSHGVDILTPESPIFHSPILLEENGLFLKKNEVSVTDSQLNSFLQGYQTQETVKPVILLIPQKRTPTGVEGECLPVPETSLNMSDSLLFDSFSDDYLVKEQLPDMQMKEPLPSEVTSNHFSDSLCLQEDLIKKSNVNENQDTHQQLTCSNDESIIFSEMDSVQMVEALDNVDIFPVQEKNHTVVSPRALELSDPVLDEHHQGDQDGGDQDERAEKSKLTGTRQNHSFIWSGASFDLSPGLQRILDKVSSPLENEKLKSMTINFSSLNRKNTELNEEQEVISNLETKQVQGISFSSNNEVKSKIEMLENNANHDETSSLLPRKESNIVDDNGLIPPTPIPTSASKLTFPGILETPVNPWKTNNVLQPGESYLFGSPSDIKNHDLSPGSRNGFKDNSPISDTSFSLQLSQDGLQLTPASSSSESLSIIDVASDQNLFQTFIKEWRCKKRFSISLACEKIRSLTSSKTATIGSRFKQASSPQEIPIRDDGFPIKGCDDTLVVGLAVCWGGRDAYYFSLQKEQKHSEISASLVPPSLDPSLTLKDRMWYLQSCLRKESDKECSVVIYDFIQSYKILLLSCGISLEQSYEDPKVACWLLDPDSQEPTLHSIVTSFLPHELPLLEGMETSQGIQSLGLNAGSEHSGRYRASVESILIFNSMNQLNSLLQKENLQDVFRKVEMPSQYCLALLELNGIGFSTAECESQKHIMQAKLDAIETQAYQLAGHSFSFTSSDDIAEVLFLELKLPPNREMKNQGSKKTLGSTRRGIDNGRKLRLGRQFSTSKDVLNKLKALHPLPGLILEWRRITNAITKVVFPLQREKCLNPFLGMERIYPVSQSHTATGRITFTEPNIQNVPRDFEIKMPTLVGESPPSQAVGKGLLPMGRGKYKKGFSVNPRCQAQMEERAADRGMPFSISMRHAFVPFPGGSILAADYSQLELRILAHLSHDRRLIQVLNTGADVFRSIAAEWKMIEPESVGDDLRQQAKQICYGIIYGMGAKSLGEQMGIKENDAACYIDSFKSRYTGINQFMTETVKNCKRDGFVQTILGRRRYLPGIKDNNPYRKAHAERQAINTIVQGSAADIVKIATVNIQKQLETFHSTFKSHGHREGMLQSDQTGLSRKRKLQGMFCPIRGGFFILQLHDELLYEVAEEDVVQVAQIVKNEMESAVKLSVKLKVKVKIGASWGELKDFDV
| Compound | remaining activity |
| --- | --- |
| CC(C)Oc1ccc(C(=O)N[C@H](CNC(=O)CN(C)C)Cc2ccc(-c3cn4cccc([C@H](C)O)c4n3)cc2)cc1Cl | 83% |
| COc1cc(C(=O)NCc2ccc(OCCN(C)C)cc2)cc(OC)c1OC | 96.5% |
| COc1ccc(CCn2nnnc2C2(c3ccc(C)cc3)CC2)cc1 | 114% |
| Cc1ccc(Nc2c(F)cccc2Cl)c(CC(=O)O)c1 | 93.8% |
| CN(N=O)C(=O)N[C@@H](C=O)[C@@H](O)[C@H](O)[C@H](O)CO | 105% |
| Oc1c(I)cc(Cl)c2cccnc12 | 110% |
| NCCCCC(=O)O | 90.7% |
| COc1cc2c(c(OC)c1OC)-c1ccc(OC)c(=O)cc1[C@@H](NC(C)=O)CC2 | 98% and 101% |
| Oc1c(Br)cc(Br)c2cccnc12 | 107% |
| COc1ccccc1CNCCCCCCNCCCCCCCCNCCCCCCNCc1ccccc1OC | 109% |

Some of these lines once more (block 1):
| SMILES | remaining activity [%] |
| --- | --- |
| O=C(c1ccccc1)c1ccc(N2CCOCC2)cc1O | 97.3 |
| C[C@@H](N)[C@H]1CC[C@H](C(=O)Nc2ccncc2)CC1 | 85.6 |
| Nc1nc(Nc2ccc(S(N)(=O)=O)cc2)nn1C(=S)Nc1c(F)cccc1F | 45.1 |
| NC(=O)c1cccc(-c2cc(Nc3ccc(OC(F)(F)F)cc3)ncn2)c1 | 93.4 |
